Experimental data gathered from unrelated publications.
Each numbered part is a random draw from the data of one study; scales do not carry over between parts. Substitutions count along the parent as printed.

Block 1
Target: Histone acetyltransferase KAT6A, winged helix 1, GST fusion (KAT6A, Homo sapiens, UniProt Q92794, residues 1-85)
Technique: protein binding microarray
Form: double-stranded DNA, one strand shown
Matrix: in vitro
Concentration: not given
Notes: 8-mer, flanks averaged, mean of 2 arrays, mostly near background
Reference: not given
Direction: higher = stronger binding
Measurement: E-score
Residues (chain): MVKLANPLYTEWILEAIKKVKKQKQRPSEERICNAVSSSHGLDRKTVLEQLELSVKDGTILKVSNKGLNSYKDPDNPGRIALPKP
CCTTAGTC: -0.113
ATGGACAT: -0.177
ATAGCAAC: -0.141
AACGGTAC: 0.188
TCGAGGAA: -0.194
TAGAAATA: -0.278
ATTCCCTA: -0.0216
GCGGCAAA: 0.316
TTCGAGAA: -0.0843
AGTGAAAG: -0.0166
CAGCTCTA: -0.105
AGCTTAAA: -0.0741
CCATCCTA: -0.23
AGTCCTAC: 0.0378
AGTACCAA: -0.121
ATTTAACA: -0.174
ACTCCATC: -0.0672
CTTTGAGC: -0.0204
AAGCTCCT: -0.119
ACTAGGCC: -0.0645
AAACCTGT: -0.188
CGCGGGTC: 0.416

Block 2
Target: RING finger protein unkempt homolog, zinc fingers 1-6, GST-SBP tag (UNK, Homo sapiens, UniProt Q9C0B0, residues 30-357)
Technique: RNA Bind-n-Seq
Form: RNA
Matrix: in vitro
Concentration: not given
Notes: RNA with constant flanks, human and mouse sites, ends assumed
Reference: input RNA pool
Direction: higher = stronger binding
Measurement: bound/input enrichment
Construct (chain): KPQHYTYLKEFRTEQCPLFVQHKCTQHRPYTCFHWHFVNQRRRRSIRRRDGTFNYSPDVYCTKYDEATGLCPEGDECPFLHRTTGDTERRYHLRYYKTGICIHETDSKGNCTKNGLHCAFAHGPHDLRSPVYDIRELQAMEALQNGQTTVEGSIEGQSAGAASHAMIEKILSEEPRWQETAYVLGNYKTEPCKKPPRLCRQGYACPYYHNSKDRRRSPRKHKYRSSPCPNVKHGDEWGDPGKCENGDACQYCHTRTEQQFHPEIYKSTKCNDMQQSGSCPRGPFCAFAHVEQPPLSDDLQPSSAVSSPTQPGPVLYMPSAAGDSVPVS
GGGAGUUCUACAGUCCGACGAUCAAAAGGAACUGGUGAUUUAAAAAAAGAAAAACACAAAAAGGGACCAUUGCAACCUUUUUAUUUUAUUUUCUUUUUUGGAGGGAGAAAGCUGAUGUCUUCUAUGCAUCCGAUUUCUUAAACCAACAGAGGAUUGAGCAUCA: 0.265 ratio
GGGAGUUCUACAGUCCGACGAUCCUGGUUGAUGGUGUUAAGAAACUCUCAGUUUGUGUUUCUGAGAAAGGAAGAGAGGAUGGUGAUGCACCGGUUACAAAAGAUGAGACCACCUGCAUUUCACAAGACACAAGAGCUUUAUCGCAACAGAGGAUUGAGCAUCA: 0.133 ratio
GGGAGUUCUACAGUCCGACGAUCGGAUUUGGAGAUGCAGUGGAUAAUAGUAAUUGCUGGCAGCCUGUUAUCGACUACAUUGAUAGUAAAUUUGAAGAUUACUUAAAUGCAGAAUCUCGAGUGAACAGACGUCAGAUGCCUGAUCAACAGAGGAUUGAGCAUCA: 0.545 ratio
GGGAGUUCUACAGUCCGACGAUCUAAUGUUCUUAGAAAAGAAUUCUCAUUCAUCUUCCCAUAGUGAAAUUCUCUAGCACUGUAUUUAGAUUCUGGAUUUUUAUAAUUCAUGCUUAAUGUAUUAGACAUUUUUAGCCCAUAAUUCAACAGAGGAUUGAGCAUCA: 12.9 ratio
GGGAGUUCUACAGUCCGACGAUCUAGAGUGGGGCAUACAUAAUCUUGCUGCUAUGCUUCGAAGCUGUAGUCUGAAUCAACCUAAGUUUUAAACAGAAGGUGAACCUCUGAGAUAGAAAAUCAAGUAUAUUUUAAAAGAAGGGACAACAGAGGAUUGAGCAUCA: 2.26 ratio
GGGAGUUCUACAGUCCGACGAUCAGUAUCAAUUGUGUGAGCUUGGGUGCGAGUGCACGCGUGCGUGAGUACGGAGAGUAUAUAUAGAUCUCUAUCUCUUAGCAAAGGUGAAUGCCAGAUGUAAAUGGCGCCUCUGGGCAAAGGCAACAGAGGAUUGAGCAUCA: 1 ratio
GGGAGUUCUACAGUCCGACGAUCCCCUGGCUGUCCUGGAACUCUCUCUGUAGACCAGGCUGGCCUCGAACUCAGGGAUCCACCUAGCUCUGUCUCUGAGUGCUGAGACUGAAGGUGUGCGCCGCCACGCCUGGCUUUUUUCCCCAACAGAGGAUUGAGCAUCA: 0.188 ratio
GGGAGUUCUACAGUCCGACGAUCCAGUGGGUGCUGUGCCUUGGCGACCCCCGCAGAGCGCGCUGCCGCCUUUCUCUGGCAGUACCACCUUCUCCACAACCCCCUCUCUGCCCAGUACAACCCUGGCGUCCUCCACCCUAGACACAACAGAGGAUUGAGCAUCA: 0.598 ratio
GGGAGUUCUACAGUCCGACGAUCGUUUUUUUUUUUUUUUUUUUUUUGCUGCUGACAUUGUAAUUAGCAUAUUCUCAACAGCAAUUAGGAAACAAUGCCUUAUAUAUGUGCUUUGGGGGGUUGAAGGGACAAAGUAGUAGCUGUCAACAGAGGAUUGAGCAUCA: 0.962 ratio
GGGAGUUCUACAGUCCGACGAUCUUGCAAAAAUGUGGAUCAUGUAGGUUAGAAGUGAAUUGUUUAGUGAAGUUUUUGUACUUUUGUGAUUUUCUUGUUUAUGUCUGUUUUUUUUUUUUUUUUUUAACAUUUGUGUGUAAUAUACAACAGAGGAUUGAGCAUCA: 80.9 ratio
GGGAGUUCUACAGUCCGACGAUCUGGUGAUCGAGUUUCUCUUCCGCCAGAGCAAAAUCAGUGAGGUCCUGGGAGGCAGCGGCUACAAUUCAGACAGGCUCUGCCUGCCGUACAUCCCUCAGCUGACAGAUGAAGAUCGCUUGUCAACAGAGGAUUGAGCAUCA: 0.0641 ratio

Block 3
Target: Sal-like protein 4, full length isoform A (SALL4, Homo sapiens, UniProt Q9UJQ4, residues 1-1053)
Chain of UniProt Q9UJQ4 (whole entry, looked up): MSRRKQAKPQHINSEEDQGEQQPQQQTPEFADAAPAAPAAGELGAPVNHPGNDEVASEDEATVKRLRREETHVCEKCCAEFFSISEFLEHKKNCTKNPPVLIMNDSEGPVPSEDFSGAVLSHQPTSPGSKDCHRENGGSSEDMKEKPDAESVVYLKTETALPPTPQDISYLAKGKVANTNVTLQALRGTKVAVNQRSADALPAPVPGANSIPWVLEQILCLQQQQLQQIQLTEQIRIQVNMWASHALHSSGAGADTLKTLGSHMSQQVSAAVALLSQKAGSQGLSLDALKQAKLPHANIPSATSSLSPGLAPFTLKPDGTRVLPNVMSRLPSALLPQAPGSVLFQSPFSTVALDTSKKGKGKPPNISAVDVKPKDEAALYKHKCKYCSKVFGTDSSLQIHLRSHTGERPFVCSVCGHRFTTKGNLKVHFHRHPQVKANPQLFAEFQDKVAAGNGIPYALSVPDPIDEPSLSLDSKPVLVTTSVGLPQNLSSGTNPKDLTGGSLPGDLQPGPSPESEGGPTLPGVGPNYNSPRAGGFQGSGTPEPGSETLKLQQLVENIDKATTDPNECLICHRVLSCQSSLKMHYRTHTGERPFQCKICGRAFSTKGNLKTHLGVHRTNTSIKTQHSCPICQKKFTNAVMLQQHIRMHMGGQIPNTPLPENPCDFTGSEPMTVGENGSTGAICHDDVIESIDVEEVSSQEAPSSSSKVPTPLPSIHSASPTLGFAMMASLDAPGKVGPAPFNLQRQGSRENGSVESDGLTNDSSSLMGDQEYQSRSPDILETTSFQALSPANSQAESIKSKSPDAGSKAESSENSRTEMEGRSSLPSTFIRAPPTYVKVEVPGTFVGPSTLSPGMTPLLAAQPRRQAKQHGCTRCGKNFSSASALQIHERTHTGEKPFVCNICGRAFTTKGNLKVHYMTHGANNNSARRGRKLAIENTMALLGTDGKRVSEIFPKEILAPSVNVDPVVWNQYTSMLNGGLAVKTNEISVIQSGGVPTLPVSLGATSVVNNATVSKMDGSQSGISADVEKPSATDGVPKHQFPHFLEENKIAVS
Technique: universal PBM
Form: double-stranded DNA, one strand shown
Matrix: in vitro
Concentration: 600 nM
Notes: 8-mer, flanks averaged, mean of replicates
Direction: higher = stronger binding
Measurement: E-score
CAAGTAAG: 0.146
GCGGCGCC: -0.322
AAAGAAGG: 0.0205
ATGTACTC: 0.0757
CGGCACCC: -0.315
CACCGGCC: -0.435
AGCGCCGC: -0.356
AATTGGGC: -0.0922
ATGCCATC: 0.12
AATCGGGT: 0.0327
CCGTATCC: -0.197
AGTGCTCA: -0.0684
AGCCATTG: 0.0445
CTTTCTGC: -0.046
CATTCGGG: -0.214
ATATTAAC: 0.397
CAGGGGTA: -0.145

Block 4
Target: ATF1, bZIP domain (human)
Technique: DHFR protein complementation
Matrix: yeast
Notes: single substitutions, most at no-binding floor
Reference: wild-type JUN-FOS pair
Direction: higher = stronger binding
Measurement: binding fitness
Parent: JUN, bZIP domain (human); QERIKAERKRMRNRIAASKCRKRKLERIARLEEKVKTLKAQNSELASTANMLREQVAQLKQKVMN; partner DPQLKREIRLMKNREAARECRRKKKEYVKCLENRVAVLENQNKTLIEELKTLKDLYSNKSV
A49L: -1.46 natural log
I28Q: -1.5 natural log
A49K: -1.49 natural log
R30A: -1.36 natural log
R53A: -1.53 natural log
K39G: -1.51 natural log
A46T: -1.51 natural log
R30M: -1.52 natural log
A40F: -1.5 natural log
T37Q: -1.24 natural log
A46Y: -1.56 natural log
N42L: -1.47 natural log
M51K: -1.53 natural log
T48M: -1.36 natural log
L31C: -1.59 natural log
L45K: -1.69 natural log
N42P: -1.55 natural log
A49I: -1.32 natural log
A49R: -1.52 natural log
A46Q: -1.26 natural log
L38A: -1.49 natural log
R30P: -1.44 natural log
Q55L: -1.6 natural log
V35E: -1.47 natural log
M51N: -1.46 natural log

Block 5
Target: CCND1, cyclin fold, Cln2 fusion (human)
Technique: yeast growth competition, sequencing
Matrix: yeast
Notes: weak parent motif
Reference: not given
Direction: higher = stronger binding
Measurement: normalised enrichment score
Parent: E2F1 docking peptide (human); PPVKRRLDLETDH; partner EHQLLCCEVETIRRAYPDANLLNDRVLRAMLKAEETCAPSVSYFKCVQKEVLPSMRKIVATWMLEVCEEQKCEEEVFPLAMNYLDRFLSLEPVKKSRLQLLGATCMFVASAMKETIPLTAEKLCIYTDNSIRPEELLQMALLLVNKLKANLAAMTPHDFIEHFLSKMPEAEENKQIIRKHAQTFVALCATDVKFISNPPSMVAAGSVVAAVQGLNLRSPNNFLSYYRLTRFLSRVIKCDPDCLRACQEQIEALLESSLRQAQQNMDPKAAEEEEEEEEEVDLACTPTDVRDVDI
PPVKRRLDLETDQ [H13Q]: 0.38
PPVKRRLDLETVH [D12V]: 0.515
PVVKRRLDLETDH [P2V]: -0.129
PPVKRRLCLETDH [D8C]: 0.0249
PPVKRRLDLQTDH [E10Q]: 0.536
PPVTRRLDLETDH [K4T]: -0.366
PPVKRELDLETDH [R6E]: 0.856
PPVKRRCDLETDH [L7C]: 0.109
PPVKRRLKLETDH [D8K]: 0.698
PPVKRRLWLETDH [D8W]: 0.119
PPVKRRLDLSTDH [E10S]: -0.0908
PPVKYRLDLETDH [R5Y]: 0.645
PPVWRRLDLETDH [K4W]: 0.274
PPVKRWLDLETDH [R6W]: 0.448
RPVKRRLDLETDH [P1R]: 0.0792
PPVKRRLDLETPH [D12P]: 0.831
PPVKRRLDLETDI [H13I]: 1.19
PPVKRRLLLETDH [D8L]: 0.627
PFVKRRLDLETDH [P2F]: 0.766
PPVKRRLDLKTDH [E10K]: -0.455
PPVKRRLYLETDH [D8Y]: -0.696
PTVKRRLDLETDH [P2T]: 0.86
PPIKRRLDLETDH [V3I]: -0.472
PPFKRRLDLETDH [V3F]: 0.246
PPVKRRLDLEFDH [T11F]: 0.878

Block 6
Target: ABI1, truncated, D143A, DHFR fusion (Arabidopsis thaliana)
Technique: DHFR PCA, deep sequencing
Matrix: yeast
Notes: methotrexate growth selection, single substitutions
Added: (+)-ABA 0.39 µM
Reference: wild-type fitted maximum
Direction: higher = stronger binding
Measurement: relative binding score
Parent: PYL1, truncated, DHFR fusion (Arabidopsis thaliana); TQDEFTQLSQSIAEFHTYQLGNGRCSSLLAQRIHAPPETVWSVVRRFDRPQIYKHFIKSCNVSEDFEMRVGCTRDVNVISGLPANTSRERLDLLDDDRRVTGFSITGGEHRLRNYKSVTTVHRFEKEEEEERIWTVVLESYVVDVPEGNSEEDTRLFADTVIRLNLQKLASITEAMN
R32K: 47.3%
E131T: 65.4%
I105R: -7.09%
F103W: -8.48%
D144E: 3.29%
V78S: 5.4%
E131D: 62.4%
F5S: 15.4%
F103S: -1.87%
S59Q: 20.6%
G102P: -8.48%
T173W: -21.2%
E67T: 33.4%
Y115R: -0.455%
S80I: 16.9%
P83D: 13.3%
D3M: 40.2%
F15H: 19.1%
T106E: 12.1%
L138D: -2.93%
L20W: 9.69%
N165M: 13.3%

Repeated from above (block 3):
ATGTACTC: 0.0757
CTTTCTGC: -0.046
CAAGTAAG: 0.146
ATGCCATC: 0.12
AGCCATTG: 0.0445
CATTCGGG: -0.214
CCGTATCC: -0.197
CACCGGCC: -0.435
GCGGCGCC: -0.322
AATTGGGC: -0.0922
CAGGGGTA: -0.145
ATATTAAC: 0.397
CGGCACCC: -0.315
